# Measured values of several laboratories.
# Each numbered part is a random draw from the data of one study; scales do not carry over between parts. Changes are numbered by the printed parent chain.

# Set 1 — technique: protein binding microarray; form: double-stranded DNA, one strand shown; sample: in vitro; tested at: not given; baseline: not given; reading: higher = stronger binding
# Target: Histone acetyltransferase KAT6A, winged helix 2, GST fusion (KAT6A, Homo sapiens, UniProt Q92794, residues 85-181)
# Setting: 8-mer, flanks averaged, mean of 2 arrays, mostly near background
# Residues (chain): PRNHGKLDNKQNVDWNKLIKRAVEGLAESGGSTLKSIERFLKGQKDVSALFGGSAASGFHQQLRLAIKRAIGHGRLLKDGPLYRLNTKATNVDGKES
Sequence,E-score
CATGTAGA,-0.0143
AGGGGTTG,-0.164
CGAGGTAG,-0.0853
TAACACTA,0.0848
CCGTCCAG,0.0326
AAACCGCT,-0.0863
CAGCTAAA,-0.00993
ACCATGCT,0.107
GACCCTAA,0.0665
ATACCCAG,0.0298
ATAAACAT,-0.163
GTAGAAAC,0.032
GAATGACA,-0.0165
AAAAAGCG,0.00773
CCGATTCA,-0.0173
CACAGTCA,-0.146
CAACTTGA,0.0507
CCGAACAG,0.0597
CAATGACA,-0.111
ACCTGCTC,0.13
CCCAGGGG,0.00709
ATCTGTAG,-0.138
CAGGGCTA,-0.208
CTGCGAGA,0.0415
AAAGTATC,0.0741

# Set 2 — target: CCNE1, cyclin fold, Cln2 fusion (human); technique: yeast growth competition, sequencing; sample: yeast; setting: strong parent motif; baseline: not given; reading: higher = stronger binding
# Starting sequence: RBL2 docking peptide (human); STTRRRLFVENDS; partner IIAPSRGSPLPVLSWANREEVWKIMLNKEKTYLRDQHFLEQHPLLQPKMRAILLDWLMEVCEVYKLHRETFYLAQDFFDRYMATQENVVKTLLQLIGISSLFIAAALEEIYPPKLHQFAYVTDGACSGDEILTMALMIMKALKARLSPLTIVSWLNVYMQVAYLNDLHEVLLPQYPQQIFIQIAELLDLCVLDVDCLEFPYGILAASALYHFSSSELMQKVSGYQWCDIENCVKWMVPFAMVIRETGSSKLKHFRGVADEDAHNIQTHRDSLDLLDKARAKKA
Change,normalised enrichment score
STKRRRLFVENDS [T3K],0.233
STTRRRLFPENDS [V9P],4.43
STTRRRCFVENDS [L7C],0.237
STTRRRLFHENDS [V9H],5.86
STTRRRLCVENDS [F8C],-0.366
STTRRRLNVENDS [F8N],0.315
STTRRRQFVENDS [L7Q],0.182
STTRRRLFVTNDS [E10T],3.4
ITTRRRLFVENDS [S1I],5
ETTRRRLFVENDS [S1E],4.76
STTRRRLFVENSS [D12S],4.57
STTPRRLFVENDS [R4P],1.11
STTRRRLDVENDS [F8D],0.184
STTRRRLFVMNDS [E10M],3.16
CTTRRRLFVENDS [S1C],6.72
STTRRRLVVENDS [F8V],-0.165
STVRRRLFVENDS [T3V],7.64
STTRRRLFQENDS [V9Q],5.59
STTRRRLPVENDS [F8P],0.654
STTRRRLFVENDT [S13T],5.67

# Set 3 — technique: DHFR PCA, deep sequencing; sample: yeast; together with: (+)-ABA 58 µM; baseline: wild-type fitted maximum; reading: higher = stronger binding
# Target: ABI1, truncated, D143A, DHFR fusion (Arabidopsis thaliana)
# Setting: methotrexate growth selection, single substitutions
# Starting sequence: PYL1, truncated, DHFR fusion (Arabidopsis thaliana); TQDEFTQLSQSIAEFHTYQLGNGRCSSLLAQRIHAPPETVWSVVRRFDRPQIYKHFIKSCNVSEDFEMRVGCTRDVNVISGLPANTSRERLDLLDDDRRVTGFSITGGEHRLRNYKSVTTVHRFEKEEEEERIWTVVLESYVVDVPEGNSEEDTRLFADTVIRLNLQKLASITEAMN
Change,relative binding score [%]
Q31S,25.8
S104N,12
E151M,80.2
V118M,83.1
N165A,8.41
E89V,2.77
N177S,82.4
M176L,82.2
A158K,-4.64
N77V,89.6
T86F,71.4
R90Y,20.2
E131Y,87.3
R45V,1.33
L29Q,64.4
N114V,0.971
R90Q,82.2

# Set 4 — target: UBE2B UBC core domain (UniProt P63146); technique: yeast two-hybrid; sample: yeast; setting: mostly zero background; baseline: not given; reading: higher = stronger interaction
# Sequence of UniProt P63146 (whole entry, looked up): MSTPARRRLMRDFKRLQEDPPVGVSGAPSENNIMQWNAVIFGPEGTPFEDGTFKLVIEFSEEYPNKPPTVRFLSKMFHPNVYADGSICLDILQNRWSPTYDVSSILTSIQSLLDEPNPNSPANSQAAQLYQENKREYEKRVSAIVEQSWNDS
# B1: RNF170 RING domain (UniProt Q96K19); chain TRQQFYTDMYCPICLHQASFPVETNCGHLFCGACIIAYWRYGSWLGAISCPICRQTVTLLLTVF
# B2: TRIM8 RING domain (UniProt Q9BZR9); chain WKNCFEEELICPICLHVFVEPVQLPCKHNFCRGCIGEAWAKDSGLVRCPECNQAYNQKPGLE
# B3: RC3H2 RING domain (UniProt Q9HBD1); chain QAAQWTEFLSCPICYNEFDENVHKPISLGCSHTVCKTCLNKLHRKACPFDQTAINTDIDVL
Molecule,lacZ reporter activity
B1 (RNF170 RING domain),0
B2 (TRIM8 RING domain),0
B3 (RC3H2 RING domain),0
QLRRLQEERTCKVCMDKEVSIVFIPCGHLVVCKDCAPSLRKCPICRSTIKGTVRTF (BIRC3 RING domain (UniProt Q13489)),0
RLTMMWEEVTCPICLDPFVEPVSIECGHSFCQECISQVGKGGGSVCPVCRQRFLLKNLRP (TRIM21 RING domain (UniProt P19474)),0
KTLSRFGIQPCSICLGDAKDPVCLPCDHVHCLRCLRAWFASEQMICPYCLTALPDEFSPA (RNF213 RING domain (UniProt Q63HN8)),0
FPEHFVKSISCQICEHILADPVETNCKHVFCRVCILRCLKVMGSYCPSCRYPCFPTDLES (RAG1 RING domain (UniProt P15918)),0

# Set 5 — technique: RNA Bind-n-Seq; form: RNA; sample: in vitro; tested at: 365 nM; baseline: no-protein control; reading: higher = stronger binding
# Target: RNA binding protein fox-1 homolog 2, RRM domain, GST-SBP tag (RBFOX2, Homo sapiens, UniProt O43251-10, residues 100-194)
# Setting: natural RNA segment, single round, ends assumed
# Constant ends, left off below: GGGAGUUCUACAGUCCGACGAUC … UGGAAUUCUCGGGUGCCAA
# Target sequence (chain): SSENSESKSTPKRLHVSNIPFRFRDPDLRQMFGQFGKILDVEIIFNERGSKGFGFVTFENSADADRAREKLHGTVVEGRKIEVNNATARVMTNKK
Sequence,RBNS enrichment (R)
GCUACGGUUCUUAAUACUGAAGUCAUGAUGUGUAUUUCCUGGAGAAAUUCCUCUUUAAAUGAACAAGUAACCACAUCUCAGGCGGCAGUGAAGUCCAGAUAGUUUUGCAG,1.91
GCAGCACCUUCUUAGCGAUCUAGGCCUGGCAAGAGCUCUGGCCCCAAGGCCUCCUCUUCCCAGGGGCUGCCAAGUCCUGGCCCUGGCCCUGGCAUAUCACCCCGCACUGU,2.52
CACUGAUGCUGGCGAUGAUGCAGAGCUGUCGCUGCCCUCAGCUCCUGCUGGCUUGUUUAUCAGGGAUAUGGGAGCUGCGGGCAUGACAGCCACAUUCUCCCAGAAGAGAC,0.353
CGCCUGUGACCACCACCCCAACAAACCAUCCAGUGACAAACCAUCCAGUGGAGGUUUGUCGGGCACCAGCCAGCGUAGCAGGGUCGGGAAAGGCCACCUGUCCCACUCCU,0.297
CUGAGAUUCCAGAUAGAGAGGCUUCGGUUCCUGCUACUUCCCUGUUUGUCUGGGGAGUAGAGGAAUGAGUAGAACUGAUUUAGUUGUCUGUGGUGGGUGGGGAUAAUUUU,1.27
UGUGGGGGAGGUCCCUGCCAGUGUUUAGAAGAGCCUGACUGUGUUCAGUGCCUUGGAGCAGAAAGCCAGGGUCCUGAGUGGCUGAAAUAAAAGCCUCUGGUGGAACCUGC,0.525
UGCCCACACAACAGUCUGAGCAAGAGACCUGCAGCCCCUGUUUCGUGGCAGACAGCAGGUGCCUGGCGGUGACCCACGGGGCUCCUGGCUUGCAGCUGGUGAUGGUCAAG,0.426
GUGCUGUGUGUCCCUCGCAAGAAGCACAGGAAAGAGAAGUUUCUUUAGUAGCCACUAGACAACCACCCUUUCUGAAAGCAAACAGUGCUGCUCUUUAUUCCAGACAAGGC,0.194

# Set 6 — target: NFE2L1, bZIP domain (human); technique: DHFR protein complementation; sample: yeast; baseline: wild-type JUN-FOS pair; reading: higher = stronger binding
# Setting: single substitutions, most at no-binding floor
# Starting sequence: JUN, bZIP domain (human); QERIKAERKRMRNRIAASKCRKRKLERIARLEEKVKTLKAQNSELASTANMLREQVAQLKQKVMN; partner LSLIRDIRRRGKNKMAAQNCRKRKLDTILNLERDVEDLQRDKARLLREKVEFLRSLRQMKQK
Change,binding fitness
A46Y,-1.32 natural log
L31Q,-1.41 natural log
Q41W,-1.5 natural log
R53A,-1.51 natural log
E44W,-1.52 natural log
R30E,-1.23 natural log
T48F,-1.32 natural log
A46C,-1.35 natural log
S43A,-1.5 natural log
L38W,-1.46 natural log
S47D,-1.47 natural log
S43G,-1.46 natural log
M51I,-1.68 natural log
T37P,-1.53 natural log
K34W,-1.4 natural log

# A few entries again (set 1):
Sequence,E-score
GAATGACA,-0.0165
AAAAAGCG,0.00773
CCGATTCA,-0.0173
CACAGTCA,-0.146
CAACTTGA,0.0507
CCGAACAG,0.0597
CAATGACA,-0.111
ACCTGCTC,0.13
CCCAGGGG,0.00709
ATCTGTAG,-0.138
CAGGGCTA,-0.208
